Measured values from different studies.
Parts stem from different laboratories: compare values within a part only. Changes are numbered by the printed parent chain.

Set 1
Target: Eukaryotic initiation factor 4A-I (EIF4A1, Homo sapiens, UniProt P60842, residues 1-406, full length assumed)
UniProt P60842, sequence (whole entry, looked up): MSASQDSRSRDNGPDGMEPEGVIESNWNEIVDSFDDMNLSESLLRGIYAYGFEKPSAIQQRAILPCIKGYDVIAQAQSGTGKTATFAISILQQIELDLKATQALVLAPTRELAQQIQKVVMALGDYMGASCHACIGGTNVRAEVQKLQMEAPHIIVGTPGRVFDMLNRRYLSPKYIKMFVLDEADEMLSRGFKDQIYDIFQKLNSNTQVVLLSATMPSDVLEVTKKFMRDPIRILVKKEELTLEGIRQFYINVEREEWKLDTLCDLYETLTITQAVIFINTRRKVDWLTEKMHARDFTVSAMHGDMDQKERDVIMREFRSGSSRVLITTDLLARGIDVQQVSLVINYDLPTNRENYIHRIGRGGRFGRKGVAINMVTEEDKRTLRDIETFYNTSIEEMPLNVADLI
Method: RNA Bind-n-Seq
Form: RNA
Medium: in vitro
Tested at: 15 pmol
Notes: 4-mer, random 30-nt RNA, single round
Added: 3 µM DMDA-PatA, 2 mM AMP-PNP
Baseline: input library
Direction: higher = stronger binding
Strand	4-mer enrichment [fold]
UGGU	1.27
ACGU	0.944
UCUG	0.873
AUGC	0.908
UUAA	1.08
CGUU	0.977
ACAU	0.664
UAAC	0.654

Set 2
Target: ATF7, bZIP domain (human)
Method: DHFR protein complementation
Medium: yeast
Notes: single substitutions, most at no-binding floor
Baseline: wild-type JUN-FOS pair
Direction: higher = stronger binding
Starting sequence: JUN, bZIP domain (human); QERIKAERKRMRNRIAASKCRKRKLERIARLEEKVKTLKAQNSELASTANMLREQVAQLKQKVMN; partner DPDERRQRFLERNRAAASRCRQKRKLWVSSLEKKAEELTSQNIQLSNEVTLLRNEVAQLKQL
Change	binding fitness
L31T	-1.4 natural log
V35T	-1.42 natural log
E54I	-1.14 natural log
A57N	-1 natural log
V35L	-1.29 natural log
M51V	-1.04 natural log
L52P	-1.51 natural log
E33W	-1.18 natural log

Set 3
Target: Centromere-binding protein 1, full length, His-tagged (CBF1, Saccharomyces cerevisiae, UniProt P17106, residues 1-351)
UniProt P17106, sequence (whole entry, looked up): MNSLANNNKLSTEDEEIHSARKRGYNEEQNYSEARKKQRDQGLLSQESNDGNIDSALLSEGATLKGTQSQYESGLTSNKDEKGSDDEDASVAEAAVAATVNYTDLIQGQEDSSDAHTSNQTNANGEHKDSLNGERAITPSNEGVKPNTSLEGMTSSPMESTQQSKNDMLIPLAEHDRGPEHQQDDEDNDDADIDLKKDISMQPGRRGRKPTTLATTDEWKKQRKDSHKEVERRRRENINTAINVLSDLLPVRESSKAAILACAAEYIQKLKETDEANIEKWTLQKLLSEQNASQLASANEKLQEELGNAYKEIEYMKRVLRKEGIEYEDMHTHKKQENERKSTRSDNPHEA
Method: competition protein-binding microarray
Form: double-stranded DNA, one strand shown
Medium: in vitro
Tested at: 2 µM
Notes: whole 60-bp probe, lowest competitor level
Added: Pho4 competitor, 0.05 µM
Direction: higher = stronger binding
Shared flanks, not repeated: … GTCTTGATTCGCTTGACGCTGCTG
Strand	fluorescence intensity [a.u.]
GAAGTTACCATTACCTGCATGACAAACAATGGCGTT	86.8
TCCTCTCTGGACGGCATCGTGTCGGACGACGCCGCA	54.7
AAATTACTAAGTTGGATGGTGGGTGACGCCGTATGA	65.1
TTATTGTCATTTGAAGGCGTGATGGGTATGTCGTTA	138
CGAAATGGCACTGACCATGCGGAGCCAGCGCCGGAA	62
AAATTACTAAGTTGTGTGGTGGGTGACGCCGTATGA	66.2
TTACTTCAAAATCACCACGTGTTGAAGAGACTTCAA	1700
CAGTTTTCCGCAAAGCACGTTTAACTGGGCAGGGAT	82.3

Other studies, line by line
SMILES	cell line	setting	quantity	result
C[C@@H](O[C@H]1OCCN(Cc2nc(O)n(P(=O)(O)O)n2)[C@H]1c1ccc(F)cc1)c1cc(C(F)(F)F)cc(C(F)(F)F)c1	A-375	100 µM, 36 h	viability	0.196%

For quick reference, copied from above (set 1):
Strand	4-mer enrichment [fold]
UGGU	1.27
ACGU	0.944
